Published values gathered from unrelated publications.
Lines come from different studies, so protocols differ. ± marks the error that the study gave.

The IC50 of `Cc1sc2c(c1C)C(c1ccc(Cl)cc1)=N[C@@H](CC(=O)N1CCN(CC3CCN(C(=O)CN4CCC(Nc5cccc6c5cc(C#CCNc5ccc(P(C)(C)=O)cc5)n6CC(F)(F)F)CC4)CC3)CC1)c1nnc(C)n1-2` is reported as 1 µM (A549 p53 Y220C isogenic; cell growth).
`O=C(/C=C/c1ccc(-c2ccccc2)cc1)N[C@@H]1O[C@H](CO)[C@@H](O)[C@H](O)[C@H]1O` gave an IC50 of 134 µM (L1210; cell growth or viability; 48 h).
With `Cn1ccn(N=Cc2ccccc2SSc2ccccc2C=Nn2ccn(C)c2=S)c1=S` the IC50 was < 0.4 µM (breast, ovarian, colorectal cancer cells; MTT; 72 h, four cancer cell lines).
With `O=c1[nH]c(=O)n([C@@H]2O[C@H](CSSc3ccccn3)[C@@H](O)[C@H](F)[C@H]2O)cc1F` the IC50 was 54 µM (L1210; cell growth or viability).
The IC50 of `CCCCCCCCCCCCCCCCCCCCCCCCCCCCCCOC(=O)/C=C/c1ccc(O)cc1` is reported as > 100 µg/mL (J774.2; NO release, inhibitor; LPS-stimulated).
`CCOc1ccccc1-c1ccc2[nH]c3ncc(/C=C/c4ccccc4)cc3c2c1` has an IC50 of 3.8 µM (parental Ba/F3 (IL-3 dependent); cell proliferation, [3H]-thymidine incorporation).
With `O=C(Nc1ccn([C@@H]2O[C@H](CO)[C@@H](O)[C@H](F)[C@H]2O)c(=O)n1)c1ccccc1` the IC50 was > 200 µM (L1210; cell growth or viability).
`CCC(C(=O)O)C1CCC(C)C(C(C)C(O)C(C)C(=O)C(CC)C2OC3(C=CC(NCc4cn(-c5ccc(C(C)=O)cc5)nn4)C4(CCC(C)(C5CCC(O)(CC)C(C)O5)O4)O3)C(C)CC2C)O1` (stereo not drawn) has an IC50 of 0.04 ± 0.01 µM (HMLER CD24low/CD44high; cell proliferation; 72 h).
With `COc1ccc([C@@H]2CC(=O)c3c(O)cc(O[C@@H]4O[C@H](CO[C@@H]5O[C@@H](C)[C@H](O)[C@@H](O)[C@H]5O)[C@@H](O[C@H]5O[C@H](CO)[C@@H](O)[C@H](O)[C@H]5O)[C@H](O)[C@H]4O)cc3O2)cc1O` the IC50 was > 150 µg/mL (MRC5; cell growth or viability, trypan blue; 72 h).
For `COc1cccc(-c2ccc(Nc3ccc(CN(C)C)cc3)c(OC)c2F)c1`, the IC50 was 6 ± 0.3 µM (HCT-15 (KRAS G13D); cell viability, CellTiter-Glo; 72 h).
`CCCCc1cc(CN(Cc2ccccn2)Cc2ccccn2)c(O)c(CN(Cc2ccccn2)Cc2ccccn2)c1` has an IC50 of 38 ± 1 µM (CHO-K1; cytotoxicity; 72 h).
For `Cc1nc(Nc2ncc(C(=O)Nc3c(C)cccc3Cl)s2)cc(N2CCN(CCOC(=O)[C@@H](N)CCCNC(=N)N)CC2)n1`, the IC50 was < 5.12e-05 µM (BV-173; cell growth or viability, MTT; 72 h).
`CCCC(CCC)C(=O)[O][Pt]([NH2])([NH2])([Cl])([Cl])[O]C(=O)C(Cl)Cl` gave an IC50 of 0.61 µM (PSN1; cell growth or viability, MTT; 72 h).
`CCc1ccc([C@H](C)CC(=O)NC(=O)N[C@@H]2O[C@H](CO)[C@@H](O)[C@H](O)[C@H]2O)cc1` gave an IC50 of > 250 µM (L1210; cell growth or viability; 48 h).
With `COC(=O)[C@H]1[C@H]2C[C@H]3O[C@@]4(CCN3C[C@H]2C[C@@H](OC(=O)c2cc(OC)c(OC)c(OC)c2)[C@@H]1OC)C(=O)Nc1cc(OC)c(-c2ccc(F)cc2)cc14` the IC50 was 2.26 µM (SU-DHL-4; cell growth or viability, trypan blue; 72 h).
`CC(C)(C)N=[C](NCc1cccc(N)c1)[AuH][Cl]` gave an IC50 of > 100 µM (OVCAR-3; cell growth or viability).
With `O=C(COc1ccc(-c2ccccc2)cc1)N[C@@H]1O[C@H](CO)[C@@H](O)[C@H](O)[C@H]1O` the IC50 was > 250 µM (L1210; cell growth or viability; 48 h).
With `CC(C)=CCc1c2c(c(O)c3c(=O)c(-c4ccc(O)cc4)coc13)C=CC(C)(C)O2` the IC50 was 13.9 to 30.9 µM (MDA-MB-231, Huh-7, KKU100, NHDF cells; cell viability, MTT; 24 h).
`CC(C)c1cccc(C(C)C)c1N1CCN(c2c(C(C)C)cccc2C(C)C)C1=[Se].[Cl][Ag]` gave an IC50 of 0.3 ± 0.04 µM (A2780 ADR; MTT; 72 h).
The IC50 of `CCN(C(=O)c1cc(F)ccc1Oc1nncnc1N1CCC2(C1)CN([C@H](CCCN(C)CCOC)C(C)C)C2)C(C)C` is reported as < 0.1 µM (KMT2A-rearranged AML lines except THP-1; cell growth).
`NC1=C(NCCCN2CCCCC2)C(=O)c2ccccc2C1=O` has an IC50 of 27 µM (HEC-1-A; cell growth or viability, MTT; 48 h).
For `CC(C)c1cccc(C(C)C)c1-n1c(Cl)c(Cl)n(-c2c(C(C)C)cccc2C(C)C)c1=[Se].[Cl][Ag]`, the IC50 was 0.2 ± 0.02 µM (A2780 ADR; MTT; 72 h).
The IC50 of `FC(F)(F)c1n[nH]cc1-c1nc2ccc3[nH]ncc3c2c2c1CCC2` is reported as 0.0661 µM (Molm13 resistant FLT3-ITD D835Y; cell growth; 72 h).
`COC(=O)[C@H]1[C@H]2C[C@H]3O[C@@]4(CCN3C[C@H]2C[C@@H](OC(=O)c2cc(OC)c(OC)c(OC)c2)[C@@H]1OC)C(=O)Nc1cc(OC)c(Br)cc14` gave an IC50 of 12.6 µM (SU-DHL-4; cell growth or viability, trypan blue; 72 h).
For `CC(=O)Oc1ccccc1C(=O)[O][Pt]([NH2])([NH2])([Cl])([Cl])[O]C(=O)CCCc1ccccc1`, the IC50 was 0.09 µM (PSN1; cell growth or viability, MTT; 72 h).
With `CC(C)(C)c1cc(=O)n2ncc(-c3ccc(F)cc3)c2[nH]1` the IC50 was 0.34 µM (SW620 cells; colony formation).
The IC50 of `O=[N+]([O-])c1ccc(/N=N/c2ccc(O)c(O)c2)cc1` is reported as 9.9 µM (patient-derived fibroblasts; cell growth, PrestoBlue; 72 h).
With `C=C[CH2][Pd-]([Cl])[Cl].CC(C)c1cccc(C(C)C)c1-n1c[n+](-c2c(C(C)C)cccc2C(C)C)c2c1-c1cccc3cccc-2c13` the IC50 was 5 µM (PSN1; cell growth or viability, MTT; 72 h).
`C/C1=C\CC[C@@]2(C)O[C@H]2[C@H]2OC(=O)[C@@H](CSC(=S)N(C)c3ccccn3)[C@@H]2CC1` has an IC50 of 13.9 µM (KG-1a; cell growth or viability, MTT; 72 h).
`CN1CCCNC(=O)CC2(CCCCC2)CC(=O)NCCCN(C)CCCNc2cccc3c2C(=O)c2cccc(c2C3=O)NCCC1` gave an IC50 of > 20 µM (HSC-2; cell growth or viability, CCK-8; 48 h).
For `C=C(C)[C@@H](O)COc1c2ccoc2cc2oc(=O)ccc12`, the IC50 was 30.5 µM (L5178Y; cell growth or viability, MTT; 72 h).
`Cc1nn(-c2ccc(S(=O)(=O)N[C@@H](CO)CC(C)C)cc2)c2nn3nnnc3nc12` gave an IC50 of 1.12 µM (CCD-841CoN; cell growth or viability, MTT; 72 h).
`CC(=O)OC[C@H]1O[C@@H](Oc2ccc(C#[C][Pt+])cc2)[C@H](OC(C)=O)[C@@H](OC(C)=O)[C@@H]1OC(C)=O.O=S(=O)([O-])C(F)(F)F.c1ccc(-c2cccc(-c3ccccn3)n2)nc1` has an IC50 of > 100 µM (CCD 19Lu; cell growth or viability; 72 h).
The IC50 of `C/C1=C\CC[C@@]2(C)O[C@H]2[C@H]2OC(=O)[C@@H](CSC(=S)N3CCCCC3)[C@@H]2CC1` is reported as 9.1 µM (KG-1a; cell growth or viability, MTT; 72 h).
For `COc1cc(-c2nc3ccc(C(=O)NCCCN(C)C)cc3n2C2CCC2)cc(OC)c1OC`, the IC50 was 3.26 µM (293 T-BRE-Luc; reporter gene, inhibitor; 6 h, together with: BMP6-induced BMP6 500 ng/mL).
With `COc1ccc2nc(NC(=O)c3ccc([C@H](N)c4ccccc4)cc3)sc2c1` the IC50 was 0.007 µM (NCI-H2122; cell growth or viability).
`O=C(O)CCCc1ccccc1` gave an IC50 of 25.7 µM (A-375; cell growth or viability; 72 h).
For `Cc1c(C)n(-c2c(C(C)C)cccc2C(C)C)c(=[Se])n1-c1c(C(C)C)cccc1C(C)C.[Cl][Au]`, the IC50 was 0.3 ± 0.02 µM (A2780 ADR; MTT; 72 h).
`CC(C)c1cccc(C(C)C)c1N=[C](NCc1ccc(N)cc1)[AuH][Cl]` has an IC50 of > 100 µM (OVCAR-3; cell growth or viability).
The IC50 of `CC(C)c1cccc(C(C)C)c1-n1ccn(-c2c(C(C)C)cccc2C(C)C)c1=[Se].[Cl][Ag]` is reported as 0.3 ± 0.05 µM (A2780 ADR; MTT; 72 h).
`Cc1cc(C)c(N=[C](NCc2cccc(N)c2)[AuH][Cl])c(C)c1` gave an IC50 of > 100 µM (OVCAR-3; cell growth or viability).
For `C/C(=N\N=c1\sc(/N=N/c2ccc([N+](=O)[O-])cc2[N+](=O)[O-])c(C)n1C)c1c(O)c2ccccc2oc1=O`, the IC50 was 27.1 ± 2.3 µM (BJ-1 skin fibroblasts; cytotoxicity, LDH release; 48 h).

Repeated from above:
The IC50 of `CC(C)c1cccc(C(C)C)c1-n1ccn(-c2c(C(C)C)cccc2C(C)C)c1=[Se].[Cl][Ag]` is reported as 0.3 ± 0.05 µM (A2780 ADR; MTT; 72 h).
`Cc1cc(C)c(N=[C](NCc2cccc(N)c2)[AuH][Cl])c(C)c1` gave an IC50 of > 100 µM (OVCAR-3; cell growth or viability).
